Experimental data from different studies.
A part holds a random share of what one study measured.

Series 1 — target: UBE2D2 UBC core domain (UniProt P62837); method: yeast two-hybrid; sample: yeast; setting: mostly zero background; relative to: not given; reading: higher = stronger interaction
Sequence of UniProt P62837 (whole entry, looked up): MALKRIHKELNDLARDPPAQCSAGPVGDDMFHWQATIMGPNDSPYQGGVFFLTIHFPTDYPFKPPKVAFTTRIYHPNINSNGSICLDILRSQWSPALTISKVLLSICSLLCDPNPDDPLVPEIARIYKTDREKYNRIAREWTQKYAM
B1: CUL9 RING domain (UniProt Q8IWT3); chain AQAVPVRPDHCPVCVSPLGCDDDLPSLCCMHYCCKSCWNEYLTTRIEQNLVLNCTCPIADCPAQPTGAFIR
B2: IRF2BPL RING domain (UniProt Q9H1B7); chain SPMANSGPLCCTICHERLEDTHFVQCPSVPSHKFCFPCSRESIKAQGATGEVYCPSGEKCPLVGSNVP
B3: UHRF2 RING domain (UniProt Q96PU4); chain CGGDPEKKCHSCSCRVCGGKHEPNMQLLCDECNVAYHIYCLNPPLDKVPEEEYWYCPSCKTDSSEVVKAGER
Under “lacZ reporter activity”, `B1 (CUL9 RING domain)` is recorded as 0.
For `FASPPDSNFVCSVCHGVLKRPARLPCSHIFCKKCILRWLARQKTCPCCRKEVKRKKVVH (RNF151 RING domain (UniProt Q2KHN1))`, “lacZ reporter activity” read 0.
`RLTMMWEEVTCPICLDPFVEPVSIECGHSFCQECISQVGKGGGSVCPVCRQRFLLKNLRP (TRIM21 RING domain (UniProt P19474))`: “lacZ reporter activity” 0.
`B2 (IRF2BPL RING domain)`: “lacZ reporter activity” 0.
`QLQDIKEQTMCPVCLDRLKNMIFLCGHGTCQLCGDRMSECPICRKAIERRILLY (MIB1 RING domain (UniProt Q86YT6))` — result for “lacZ reporter activity”: 10200.
Under “lacZ reporter activity”, `B3 (UHRF2 RING domain)` is recorded as 0.
`FPEHFVKSISCQICEHILADPVETNCKHVFCRVCILRCLKVMGSYCPSCRYPCFPTDLES (RAG1 RING domain (UniProt P15918))` — result for “lacZ reporter activity”: 0.

Series 2 — method: competition protein-binding microarray; molecule type: double-stranded DNA, one strand shown; sample: in vitro; tested at: 2 µM; with: Pho4 competitor, 0.05 µM; reading: higher = stronger binding
Target: Centromere-binding protein 1, full length, His-tagged (CBF1, Saccharomyces cerevisiae, UniProt P17106, residues 1-351)
Sequence of UniProt P17106 (whole entry, looked up): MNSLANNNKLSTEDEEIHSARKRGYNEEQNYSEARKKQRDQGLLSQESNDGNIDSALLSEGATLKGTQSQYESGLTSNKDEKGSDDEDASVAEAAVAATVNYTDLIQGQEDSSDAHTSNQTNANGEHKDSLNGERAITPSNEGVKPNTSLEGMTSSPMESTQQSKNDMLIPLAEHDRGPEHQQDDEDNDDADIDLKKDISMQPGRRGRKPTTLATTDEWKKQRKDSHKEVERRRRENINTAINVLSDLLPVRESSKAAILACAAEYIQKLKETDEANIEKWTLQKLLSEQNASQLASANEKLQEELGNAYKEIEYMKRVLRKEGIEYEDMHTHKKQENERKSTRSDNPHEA
Setting: whole 60-bp probe, lowest competitor level
The fluorescence intensity of `TATCAAAAGTACCAACACGGGGAAAGAGAGCCATCCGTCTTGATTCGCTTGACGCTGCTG` is reported as 68.2 a.u.
The fluorescence intensity of `AAAGCGGTAATTTGTCACGCCACTTCACATATCTATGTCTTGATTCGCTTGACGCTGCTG` is reported as 308 a.u.
For `TGCGCAACAACTTGGAATGTGGGTGTATGTCTAGAAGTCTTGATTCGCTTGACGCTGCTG`, the fluorescence intensity was 69.9 a.u.
`GTTGAAACTGTCAACATCGTGTAGGACATTGGATAAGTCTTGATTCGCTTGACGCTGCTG` gave a fluorescence intensity of 72.2 a.u.
`AGCGACTAAGAAAGTCTTGTGACGGGATGGTGACAAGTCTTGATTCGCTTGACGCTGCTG` has a fluorescence intensity of 104 a.u.
`AAATTGGATGAAGTTGTTGTGATGCTCAAGAAAGTTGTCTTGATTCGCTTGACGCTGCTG` gave a fluorescence intensity of 76 a.u.
With `CAACTTTTACGAATTCTCGTGCAAATTTTCAGCGATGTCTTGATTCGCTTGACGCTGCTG` the fluorescence intensity was 121 a.u.
`GTCTTGTCTCATTGGAACGTGGGTGTCCCCACTTCAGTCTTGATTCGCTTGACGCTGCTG` has a fluorescence intensity of 115 a.u.

Series 3 — read-out: peptide-MHC binding; molecule type: peptide; tested at: concentration not given
Target: HLA class I histocompatibility antigen, A alpha chain, allele A*26:03 (Homo sapiens, UniProt P04439)
`KVFDKSLLY` — result for binding: “inactive”.
For `AEALLADGL`, binding read “inactive”.
Under binding, `ETALAIIRR` is recorded as “inactive”.
`SYVFNFHKY` — result for binding: “inactive”.
`LFNTVAVLY` — result for binding: “inactive”.

Series 4 — method: universal PBM; molecule type: double-stranded DNA, one strand shown; sample: in vitro; tested at: 600 nM; reading: higher = stronger binding
Target: Sal-like protein 4, full length isoform A (SALL4, Homo sapiens, UniProt Q9UJQ4, residues 1-1053)
Sequence of UniProt Q9UJQ4 (whole entry, looked up): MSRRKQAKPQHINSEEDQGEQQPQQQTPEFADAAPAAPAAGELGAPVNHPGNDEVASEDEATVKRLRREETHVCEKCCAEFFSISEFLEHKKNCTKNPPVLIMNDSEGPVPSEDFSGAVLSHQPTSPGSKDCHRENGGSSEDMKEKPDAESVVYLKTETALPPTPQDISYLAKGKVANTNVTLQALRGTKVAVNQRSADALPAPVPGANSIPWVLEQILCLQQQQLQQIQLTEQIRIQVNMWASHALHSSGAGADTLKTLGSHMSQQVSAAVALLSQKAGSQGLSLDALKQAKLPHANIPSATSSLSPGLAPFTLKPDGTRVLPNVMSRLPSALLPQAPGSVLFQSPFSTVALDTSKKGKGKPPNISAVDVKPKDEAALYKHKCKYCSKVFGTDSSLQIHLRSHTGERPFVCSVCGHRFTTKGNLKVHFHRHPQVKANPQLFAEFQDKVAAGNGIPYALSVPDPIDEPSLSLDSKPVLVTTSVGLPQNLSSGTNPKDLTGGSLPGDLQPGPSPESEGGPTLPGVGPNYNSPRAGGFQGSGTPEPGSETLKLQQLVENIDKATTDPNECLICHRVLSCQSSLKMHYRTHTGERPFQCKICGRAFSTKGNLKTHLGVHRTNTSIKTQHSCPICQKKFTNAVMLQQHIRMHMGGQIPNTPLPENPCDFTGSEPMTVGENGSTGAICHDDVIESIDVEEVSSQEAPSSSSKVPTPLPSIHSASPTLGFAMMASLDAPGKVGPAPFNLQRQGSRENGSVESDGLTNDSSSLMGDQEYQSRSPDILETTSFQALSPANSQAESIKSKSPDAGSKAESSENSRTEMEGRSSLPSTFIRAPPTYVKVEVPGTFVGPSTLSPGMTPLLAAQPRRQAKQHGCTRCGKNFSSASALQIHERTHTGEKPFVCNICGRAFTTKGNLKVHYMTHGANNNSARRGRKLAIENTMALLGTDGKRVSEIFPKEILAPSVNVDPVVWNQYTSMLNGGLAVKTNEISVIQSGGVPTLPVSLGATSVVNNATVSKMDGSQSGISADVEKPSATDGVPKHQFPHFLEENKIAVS
Setting: 8-mer, flanks averaged, mean of replicates
For `CATGTTGC`, the E-score was -0.0305.
`ATGGAAAC` has an E-score of 0.159.
With `CGTACTGA` the E-score was 0.0393.
With `GAATTAAC` the E-score was 0.168.
`AAATATTC` has an E-score of 0.415.
For `CTTGTAGA`, the E-score was -0.139.
The E-score of `AGCGAAAC` is reported as -0.0165.
The E-score of `AAGTATGC` is reported as 0.123.
